Measurements gathered from unrelated publications.
Each line is one published result; not all experiments were run side by side. “And” joins repeats or separate records; there may be more than shown. Numbers after ± are the reported error.
Chain of UniProt Q01959 (whole entry, unmodified, looked up): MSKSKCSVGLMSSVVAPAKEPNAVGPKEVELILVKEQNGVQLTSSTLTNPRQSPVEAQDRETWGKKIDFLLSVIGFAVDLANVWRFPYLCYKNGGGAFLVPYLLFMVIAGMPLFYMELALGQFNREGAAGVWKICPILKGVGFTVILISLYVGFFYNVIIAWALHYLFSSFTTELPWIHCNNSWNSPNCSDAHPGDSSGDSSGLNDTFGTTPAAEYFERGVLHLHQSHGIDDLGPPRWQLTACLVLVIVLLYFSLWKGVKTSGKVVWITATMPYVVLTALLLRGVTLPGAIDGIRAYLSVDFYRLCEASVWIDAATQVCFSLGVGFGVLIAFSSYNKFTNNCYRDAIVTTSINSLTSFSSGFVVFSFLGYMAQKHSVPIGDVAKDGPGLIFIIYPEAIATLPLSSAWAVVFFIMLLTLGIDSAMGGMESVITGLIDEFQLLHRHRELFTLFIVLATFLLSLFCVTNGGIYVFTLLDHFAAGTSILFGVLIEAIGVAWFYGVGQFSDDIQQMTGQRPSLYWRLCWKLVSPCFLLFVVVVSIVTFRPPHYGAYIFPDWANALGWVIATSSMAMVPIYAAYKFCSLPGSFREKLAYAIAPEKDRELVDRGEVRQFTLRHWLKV
Chain of UniProt O95983 (whole entry, looked up): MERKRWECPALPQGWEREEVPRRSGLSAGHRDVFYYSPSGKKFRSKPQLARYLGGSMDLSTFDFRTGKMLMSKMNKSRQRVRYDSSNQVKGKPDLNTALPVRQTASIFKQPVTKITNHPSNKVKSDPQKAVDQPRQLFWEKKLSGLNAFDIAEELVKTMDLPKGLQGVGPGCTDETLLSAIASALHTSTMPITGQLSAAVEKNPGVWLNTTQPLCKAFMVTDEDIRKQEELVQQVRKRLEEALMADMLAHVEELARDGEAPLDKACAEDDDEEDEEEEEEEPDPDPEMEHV
Chain of UniProt P08172 (whole entry, looked up): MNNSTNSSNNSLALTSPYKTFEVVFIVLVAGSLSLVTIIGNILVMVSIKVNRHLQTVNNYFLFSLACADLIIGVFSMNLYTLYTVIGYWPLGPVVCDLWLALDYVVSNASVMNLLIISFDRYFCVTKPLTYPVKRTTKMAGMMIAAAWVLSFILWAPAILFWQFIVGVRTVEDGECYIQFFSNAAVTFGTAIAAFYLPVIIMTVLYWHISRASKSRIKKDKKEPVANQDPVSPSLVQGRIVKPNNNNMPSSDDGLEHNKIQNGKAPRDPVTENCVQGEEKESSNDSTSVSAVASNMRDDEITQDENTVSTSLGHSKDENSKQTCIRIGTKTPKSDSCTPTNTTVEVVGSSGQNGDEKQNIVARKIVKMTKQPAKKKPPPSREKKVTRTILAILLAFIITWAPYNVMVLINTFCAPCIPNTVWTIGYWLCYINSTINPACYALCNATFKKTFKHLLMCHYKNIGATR
Chain of UniProt P28335 (whole entry, looked up): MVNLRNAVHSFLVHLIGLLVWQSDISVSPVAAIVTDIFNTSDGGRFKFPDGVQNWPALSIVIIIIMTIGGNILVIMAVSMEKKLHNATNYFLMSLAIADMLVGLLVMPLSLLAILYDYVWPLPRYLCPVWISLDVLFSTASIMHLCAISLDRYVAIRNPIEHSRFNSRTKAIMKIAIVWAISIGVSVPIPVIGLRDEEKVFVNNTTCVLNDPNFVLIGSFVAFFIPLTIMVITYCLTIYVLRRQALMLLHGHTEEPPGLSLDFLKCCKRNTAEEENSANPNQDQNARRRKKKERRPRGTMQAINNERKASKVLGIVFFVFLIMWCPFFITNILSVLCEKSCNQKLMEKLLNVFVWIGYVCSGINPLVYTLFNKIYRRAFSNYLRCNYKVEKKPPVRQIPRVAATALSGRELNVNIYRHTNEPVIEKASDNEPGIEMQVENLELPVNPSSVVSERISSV
Chain of UniProt Q16584 (whole entry, looked up): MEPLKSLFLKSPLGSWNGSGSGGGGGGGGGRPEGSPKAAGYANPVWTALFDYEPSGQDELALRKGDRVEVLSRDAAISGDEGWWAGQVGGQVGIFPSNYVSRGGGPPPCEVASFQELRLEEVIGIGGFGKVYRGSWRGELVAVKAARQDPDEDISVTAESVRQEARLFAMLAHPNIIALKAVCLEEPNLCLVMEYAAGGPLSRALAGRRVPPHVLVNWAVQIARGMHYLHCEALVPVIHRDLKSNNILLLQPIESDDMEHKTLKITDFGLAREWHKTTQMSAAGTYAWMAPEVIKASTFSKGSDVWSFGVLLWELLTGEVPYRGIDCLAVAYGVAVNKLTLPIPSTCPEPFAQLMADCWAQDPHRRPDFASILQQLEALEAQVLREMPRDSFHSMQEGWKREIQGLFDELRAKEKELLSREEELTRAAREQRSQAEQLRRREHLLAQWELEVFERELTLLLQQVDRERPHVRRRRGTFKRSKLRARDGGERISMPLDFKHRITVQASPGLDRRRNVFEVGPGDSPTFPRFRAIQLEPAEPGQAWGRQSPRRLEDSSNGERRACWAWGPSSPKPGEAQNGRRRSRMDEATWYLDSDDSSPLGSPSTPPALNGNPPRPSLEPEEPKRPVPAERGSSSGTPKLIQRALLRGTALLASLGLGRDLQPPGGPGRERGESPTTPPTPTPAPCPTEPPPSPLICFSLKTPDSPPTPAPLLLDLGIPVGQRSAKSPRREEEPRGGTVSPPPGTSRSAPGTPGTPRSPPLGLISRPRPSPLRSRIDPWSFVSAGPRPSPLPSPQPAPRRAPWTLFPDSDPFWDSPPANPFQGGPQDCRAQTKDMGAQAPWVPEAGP
Chain of UniProt P16257 (whole entry, looked up): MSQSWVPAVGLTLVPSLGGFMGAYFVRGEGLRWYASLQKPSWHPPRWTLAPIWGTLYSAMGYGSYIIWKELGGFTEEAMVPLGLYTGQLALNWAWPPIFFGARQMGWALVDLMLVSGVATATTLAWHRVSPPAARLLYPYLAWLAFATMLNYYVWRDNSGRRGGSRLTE
Chain of UniProt P49238 (whole entry, looked up): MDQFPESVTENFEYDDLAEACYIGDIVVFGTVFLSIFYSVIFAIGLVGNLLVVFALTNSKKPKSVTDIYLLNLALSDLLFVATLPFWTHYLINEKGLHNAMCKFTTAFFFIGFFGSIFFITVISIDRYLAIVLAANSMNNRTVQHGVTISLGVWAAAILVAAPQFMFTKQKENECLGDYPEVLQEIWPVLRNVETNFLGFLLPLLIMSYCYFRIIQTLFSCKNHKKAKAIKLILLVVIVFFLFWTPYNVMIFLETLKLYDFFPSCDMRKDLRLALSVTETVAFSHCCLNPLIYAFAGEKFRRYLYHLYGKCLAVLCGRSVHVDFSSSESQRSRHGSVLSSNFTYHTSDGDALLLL
Chain of UniProt Q8NDV2 (whole entry, looked up): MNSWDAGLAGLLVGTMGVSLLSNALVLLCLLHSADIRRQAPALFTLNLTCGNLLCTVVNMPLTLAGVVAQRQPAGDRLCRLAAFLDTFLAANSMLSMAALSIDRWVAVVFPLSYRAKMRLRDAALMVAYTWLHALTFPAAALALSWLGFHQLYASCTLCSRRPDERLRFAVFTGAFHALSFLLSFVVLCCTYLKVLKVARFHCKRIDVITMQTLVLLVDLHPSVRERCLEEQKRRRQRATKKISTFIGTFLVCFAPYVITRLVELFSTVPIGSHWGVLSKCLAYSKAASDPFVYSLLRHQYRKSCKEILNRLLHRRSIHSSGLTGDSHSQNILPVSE
Chain of UniProt P0A4Q0 (whole entry, looked up): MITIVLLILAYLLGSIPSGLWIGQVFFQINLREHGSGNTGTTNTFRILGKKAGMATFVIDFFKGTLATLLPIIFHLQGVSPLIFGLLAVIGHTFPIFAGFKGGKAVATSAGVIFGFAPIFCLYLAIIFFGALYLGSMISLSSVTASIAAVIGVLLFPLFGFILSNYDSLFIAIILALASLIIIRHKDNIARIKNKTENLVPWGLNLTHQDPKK
Chain of UniProt P18507 (whole entry, looked up): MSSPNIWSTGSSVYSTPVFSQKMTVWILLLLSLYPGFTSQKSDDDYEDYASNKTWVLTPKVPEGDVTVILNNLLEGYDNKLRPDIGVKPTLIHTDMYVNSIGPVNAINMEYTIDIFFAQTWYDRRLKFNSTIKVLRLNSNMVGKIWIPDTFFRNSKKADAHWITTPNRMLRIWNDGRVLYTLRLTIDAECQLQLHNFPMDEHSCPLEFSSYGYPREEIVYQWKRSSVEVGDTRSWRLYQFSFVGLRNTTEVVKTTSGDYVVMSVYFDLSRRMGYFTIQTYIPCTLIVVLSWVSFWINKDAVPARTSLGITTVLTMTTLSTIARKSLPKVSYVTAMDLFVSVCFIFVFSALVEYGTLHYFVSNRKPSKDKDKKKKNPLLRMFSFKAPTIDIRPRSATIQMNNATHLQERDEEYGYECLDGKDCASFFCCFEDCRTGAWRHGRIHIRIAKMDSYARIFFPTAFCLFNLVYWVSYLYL
Chain of UniProt P14867 (whole entry, looked up): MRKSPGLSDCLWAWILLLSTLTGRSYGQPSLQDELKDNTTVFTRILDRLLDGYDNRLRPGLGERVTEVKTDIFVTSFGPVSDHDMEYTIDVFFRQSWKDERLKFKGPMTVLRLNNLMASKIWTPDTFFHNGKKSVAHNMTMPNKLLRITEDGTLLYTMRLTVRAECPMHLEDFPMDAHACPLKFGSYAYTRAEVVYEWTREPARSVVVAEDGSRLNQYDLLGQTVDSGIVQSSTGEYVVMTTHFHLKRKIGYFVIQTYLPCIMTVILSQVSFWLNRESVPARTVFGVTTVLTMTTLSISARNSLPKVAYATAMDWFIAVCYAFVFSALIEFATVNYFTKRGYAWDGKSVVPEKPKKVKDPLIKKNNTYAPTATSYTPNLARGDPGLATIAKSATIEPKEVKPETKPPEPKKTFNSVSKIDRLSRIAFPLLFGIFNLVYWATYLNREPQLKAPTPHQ
Chain of UniProt Q8WZ82 (whole entry, looked up): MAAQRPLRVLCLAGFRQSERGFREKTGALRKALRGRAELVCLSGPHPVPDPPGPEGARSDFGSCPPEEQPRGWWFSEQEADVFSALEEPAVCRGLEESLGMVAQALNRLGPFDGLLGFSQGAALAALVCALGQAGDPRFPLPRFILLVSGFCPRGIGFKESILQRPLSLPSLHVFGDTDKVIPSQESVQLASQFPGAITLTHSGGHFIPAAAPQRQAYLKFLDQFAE

Compound | target or system | assay | system | conditions | how to read | endpoint | result
C[C@H]1CN(c2n[nH]c3nc(N[C@H]4CC[C@H](NS(=O)(=O)CCC(F)(F)F)CC4)ncc23)CCO1 | Methyl-CpG-binding domain protein 3 (MBD3, Homo sapiens, UniProt O95983) | Kinobeads competition, item: MBD3 |  | 0.032 µM, unit not given | reference: vehicle | remaining binding | 1.11
Brc1ccc2c(c1)C(c1ccccn1)=NCc1c(-c3cnco3)ncn1-2 | Translocator protein (Tspo, Rattus norvegicus, UniProt P16257) |  | rat | 10 µM |  | inhibition | 93.4%
NNc1nc2ccccc2s1 | Alanine aminotransferase 1 (GPT, Sus scrofa, UniProt P13191) | uncompetitive inhibitor, LDH-coupled |  | added: alpha-ketoglutarate 6.25 to 50 µM varied, alanine 10 mM |  | Kiu | 74 ± 8.2 µM
CN1CC[C@@]2(C)c3cc(OC(=O)Nc4ccccc4)ccc3N(C)[C@@H]12 | human nicotinic α3β4 receptor | radioligand binding |  | 10 µM, added: [3H]epibatidine |  | inhibition | 12.3%
CCCc1cc(O)c2c(c1)OC(C)(C)[C@@H]1CCC(C)=C[C@@H]21 | Transient receptor potential cation channel subfamily V member 3 (TRPV3, Homo sapiens, UniProt Q8NET8, S444L) | calcium uptake, agonist | HEK293S | mutant S444L, site 2 |  | Hill coefficient | 1.8 ± 0.39
Oc1ccc2c3c1O[C@H]1[C@@H](O)CC[C@@]4(O)[C@@H](C2)N(CC2CCC2)CC[C@]314 | G-protein coupled receptor 26 (GPR26, Homo sapiens, UniProt Q8NDV2) | β-arrestin recruitment, TANGO luminescence, item: GPR26 |  | concentration not given | reference: basal luminescence | log2 fold change | 0.006
CO[C@H]1C[C@@H]2CC[C@@H](C)[C@@](O)(O2)C(=O)C(=O)N2CCCC[C@H]2C(=O)O[C@H]([C@H](C)C[C@@H]2CC[C@@H](OC(=O)NCCOCCOCCOCCOCCOCCOCCOCCOCCC(=O)N3CCc4cc(Cn5nc(-c6ccc7oc(N)nc7c6)c6c(N)ncnc65)ccc4C3)[C@H](OC)C2)C[C@@H](O)[C@H](C)/C=C(\C)[C@@H](O)[C@@H](OC)C(=O)[C@H](C)C[C@H](C)/C=C/C=C/C=C/1C |  |  | patients with advanced solid tumours | intravenous, 10 mg weekly, any grade |  | decreased appetite leading to dose reduction | 0%
C[C@]12N[C@H](Cc3ccccc31)c1ccccc12 | NMDA receptor GluN1/GluN2A lacking NTD | ion current, inhibitor, oocyte voltage clamp |  | 50 nM |  | onset time constant | 6.8 ± 0.6 s
COc1ccc(OS(=O)(=O)NC(=O)CCCCc2ccccc2)cc1 | Glycerol-3-phosphate acyltransferase (plsY, Streptococcus pneumoniae, UniProt P0A4Q0) | inhibitor |  | 200 µM |  | inhibition | 12%
COc1ccc(N2C(=O)N(c3c(C)cccc3Cl)Cc3cnc(Nc4ccc(C5CCN(C)CC5)cc4OC)nc32)nc1 | Mitogen-activated protein kinase kinase kinase 11 (MAP3K11, Homo sapiens, UniProt Q16584) | kinase activity, inhibitor |  | 0.5 µM, MLK3 |  | inhibition | 2.31%
c1ccc2cc([C@]34CNC[C@H]3C4)ccc2c1 | Sodium-dependent dopamine transporter (SLC6A3, Homo sapiens, UniProt Q01959, F326A) | inhibitor, [3H]dopamine uptake |  | 10 µM, F326A mutant | reference: no inhibitor | dopamine uptake | 19.4% and 23.4% and 31.3%
CN[C@]1(c2ccccc2Cl)CCCCC1=O | AMPA receptor | radioligand binding, agonist, radioligand displacement |  | 30 µM |  | inhibition | 1%
Clc1cc(Cl)cc(N2CCNCC2)c1 | Muscarinic acetylcholine receptor M2 (CHRM2, Homo sapiens, UniProt P08172) | ERK1/2 phosphorylation, agonist | CHO cells |  |  | Emax | < 10%
CC[C@H](C)[C@H](NC(=O)[C@H](Cc1ccccc1)NC(=O)[C@H](CCC(=O)O)NC(=O)[C@H](CCCNC(=N)N)NC(=O)[C@H](C)NC(=O)[C@H](C)NC(=O)[C@H](CCC(N)=O)NC(=O)[C@H](CCC(=O)O)NC(=O)[C@H](CCC(=O)O)NC(=O)[C@H](CC(C)C)NC(=O)[C@H](Cc1ccc(O)cc1)NC(=O)[C@H](CO)NC(=O)[C@H](CO)NC(=O)[C@@H](NC(=O)[C@H](CC(=O)O)NC(=O)[C@H](CO)NC(=O)[C@@H](NC(=O)[C@H](Cc1ccccc1)NC(=O)[C@@H](NC(=O)CNC(=O)[C@H](CCC(=O)O)NC(=O)[C@H](C)NC(=O)CCc1c[nH]cn1)[C@@H](C)O)[C@@H](C)O)C(C)C)C(=O)N[C@@H](C)C(=O)N[C@@H](Cc1c[nH]c2ccccc12)C(=O)N[C@@H](CC(C)C)C(=O)N[C@H](C(=O)N[C@@H](CCCNC(=N)N)C(=O)NCC(=O)N[C@@H](CCCNC(=N)N)C(=O)N[C@@H](CCCCNC(=O)COCCOCCNC(=O)COCCOCCNC(=O)CC[C@H](NC(=O)CCCCCCCCCCCCCCCCC(=O)O)C(=O)O)C(=O)NCC(=O)NCC(=O)N[C@@H](CO)C(=O)N[C@@H](CCCCNc1c(NCCCCCN(O)C(=O)CCC(=O)NCCCCCN(O)C(=O)CCC(=O)NCCCCCN(O)C(C)=O)c(=O)c1=O)C(=O)O)C(C)C [zirconium-89 labelled] |  |  | rat, blood | sc, 3 nmol/kg, 168 h, ex vivo |  | tissue uptake | 0.02 %ID/g
C=CCN1CC[C@]23c4c5ccc(O)c4O[C@H]2C(=O)CC[C@]3(O)[C@H]1C5 | Gamma-aminobutyric acid receptor subunit alpha-1/gamma-2 (Homo sapiens, UniProt P14867+P18507) |  |  | concentration not given |  | inhibition | 0.7%
O=C(c1ccc(Cl)cc1)N1CCN2C(=O)N(OC(=O)N3CCOc4ccccc43)C(=O)C2C1 (stereo not drawn) | OVCA2 (Homo sapiens, UniProt Q8WZ82) | enzyme activity, inhibitor, MS-based ABPP | SW-620 conditioned medium | 10 µM, 1 h, 37 °C | reference: compound over DMSO, lower = stronger inhibition | median ratio | 1.57
Nc1ccn([C@H]2C[C@H](O)[C@@H](COP(=O)(O)OP(=O)(O)OP(=O)(O)O)O2)c(=O)n1 | RNA-directed RNA polymerase PB1, with PA and PB2 (Influenza B virus, UniProt Q5V8Y6) | single-nucleotide incorporation, substrate |  |  |  | Vmax | 0.27 product fraction
CN[C@@H](C)[C@@H](O)c1ccccc1 | OCT1 human | binding, frontal displacement chromatography |  | unit not given | reference: higher Ki over lower Ki | enantioselectivity | 1.5
COc1cc2c(Oc3ccc4[nH]c(C)cc4c3F)ccnc2cc1OCC1(N)CC1 |  |  | paediatric recurrent refractory sarcoma | 12 mg |  | grade 3 sinus tachycardia | 0%
COc1cc(CCNC(C)c2ccccc2O)c(OC)cc1C#N (single isomer, unassigned; (-)) | 5-hydroxytryptamine receptor 2C (HTR2C, Homo sapiens, UniProt P28335) | calcium flux, agonist |  |  | reference: calcium flux over Gq dissociation (BRET) | fold potency decrease | 4 fold
COc1cc(Nc2ncc(F)c(Nc3ccc4c(n3)NC(=O)C(C)(C)O4)n2)cc(OC)c1OC | CX3C chemokine receptor 1 (CX3CR1, Homo sapiens, UniProt P49238) |  |  |  |  | IC50 | > 10 µM
